Assay results of several laboratories.
Numbered parts are unrelated; each lists some results of a single study. Substitutions count along the parent as printed.

Study 1
Target: OGT, full length, His-tagged (human)
Technique: phage display, sequencing
Sample: in vitro
Tested at: 1 µg OGT
Setting: single substitutions, 15-mer displayed peptide, unchanged parent 16.7
Baseline: input library
Direction: higher = stronger binding
Parent: peptide; NSEYMPQYQIIFAHQ; partner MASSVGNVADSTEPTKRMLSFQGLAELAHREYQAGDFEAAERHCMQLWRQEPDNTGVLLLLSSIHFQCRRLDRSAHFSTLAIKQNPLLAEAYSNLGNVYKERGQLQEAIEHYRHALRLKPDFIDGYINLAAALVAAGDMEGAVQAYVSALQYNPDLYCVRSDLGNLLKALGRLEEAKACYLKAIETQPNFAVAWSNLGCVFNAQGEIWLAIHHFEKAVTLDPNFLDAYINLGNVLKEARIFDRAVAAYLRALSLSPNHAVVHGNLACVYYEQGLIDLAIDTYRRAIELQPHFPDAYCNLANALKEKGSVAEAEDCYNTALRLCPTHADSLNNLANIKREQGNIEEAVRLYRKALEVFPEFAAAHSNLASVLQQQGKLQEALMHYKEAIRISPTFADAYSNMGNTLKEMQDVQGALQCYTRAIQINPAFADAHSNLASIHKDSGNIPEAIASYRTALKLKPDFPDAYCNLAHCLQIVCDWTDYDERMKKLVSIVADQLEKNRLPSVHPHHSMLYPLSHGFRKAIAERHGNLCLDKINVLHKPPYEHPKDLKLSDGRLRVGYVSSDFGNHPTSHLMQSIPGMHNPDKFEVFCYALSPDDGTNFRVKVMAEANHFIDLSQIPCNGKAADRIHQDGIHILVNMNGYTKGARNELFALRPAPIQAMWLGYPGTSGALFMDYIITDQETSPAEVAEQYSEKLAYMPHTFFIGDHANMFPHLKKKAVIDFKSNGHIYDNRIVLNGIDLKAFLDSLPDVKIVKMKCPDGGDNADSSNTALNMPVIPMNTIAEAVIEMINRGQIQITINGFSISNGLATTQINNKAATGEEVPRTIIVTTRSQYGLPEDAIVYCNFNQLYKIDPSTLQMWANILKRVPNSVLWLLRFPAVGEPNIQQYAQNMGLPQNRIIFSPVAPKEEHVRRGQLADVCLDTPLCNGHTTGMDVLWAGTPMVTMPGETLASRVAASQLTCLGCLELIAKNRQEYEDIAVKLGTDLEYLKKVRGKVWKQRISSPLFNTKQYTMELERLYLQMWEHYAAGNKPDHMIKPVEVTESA
| Substitution | fold enrichment |
| --- | --- |
| NSEYMPQYQIIFARQ [H14R] | 18.6 fold |
| NSEYMPQYQIIFGHQ [A13G] | 13.1 fold |
| NSYYMPQYQIIFAHQ [E3Y] | 12.6 fold |
| NSEYMPQYQIIDAHQ [F12D] | 0.55 fold |
| NSEYMPQYQIIFAQQ [H14Q] | 14.8 fold |
| NSEYMPQYQIIIAHQ [F12I] | 10.7 fold |
| NSEYMPQYQIIFAHS [Q15S] | 15.7 fold |
| NSEYMIQYQIIFAHQ [P6I] | 3.81 fold |

Study 2
Target: Sal-like protein 4, full length isoform A (SALL4, Homo sapiens, UniProt Q9UJQ4, residues 1-1053)
Chain of UniProt Q9UJQ4 (whole entry, looked up): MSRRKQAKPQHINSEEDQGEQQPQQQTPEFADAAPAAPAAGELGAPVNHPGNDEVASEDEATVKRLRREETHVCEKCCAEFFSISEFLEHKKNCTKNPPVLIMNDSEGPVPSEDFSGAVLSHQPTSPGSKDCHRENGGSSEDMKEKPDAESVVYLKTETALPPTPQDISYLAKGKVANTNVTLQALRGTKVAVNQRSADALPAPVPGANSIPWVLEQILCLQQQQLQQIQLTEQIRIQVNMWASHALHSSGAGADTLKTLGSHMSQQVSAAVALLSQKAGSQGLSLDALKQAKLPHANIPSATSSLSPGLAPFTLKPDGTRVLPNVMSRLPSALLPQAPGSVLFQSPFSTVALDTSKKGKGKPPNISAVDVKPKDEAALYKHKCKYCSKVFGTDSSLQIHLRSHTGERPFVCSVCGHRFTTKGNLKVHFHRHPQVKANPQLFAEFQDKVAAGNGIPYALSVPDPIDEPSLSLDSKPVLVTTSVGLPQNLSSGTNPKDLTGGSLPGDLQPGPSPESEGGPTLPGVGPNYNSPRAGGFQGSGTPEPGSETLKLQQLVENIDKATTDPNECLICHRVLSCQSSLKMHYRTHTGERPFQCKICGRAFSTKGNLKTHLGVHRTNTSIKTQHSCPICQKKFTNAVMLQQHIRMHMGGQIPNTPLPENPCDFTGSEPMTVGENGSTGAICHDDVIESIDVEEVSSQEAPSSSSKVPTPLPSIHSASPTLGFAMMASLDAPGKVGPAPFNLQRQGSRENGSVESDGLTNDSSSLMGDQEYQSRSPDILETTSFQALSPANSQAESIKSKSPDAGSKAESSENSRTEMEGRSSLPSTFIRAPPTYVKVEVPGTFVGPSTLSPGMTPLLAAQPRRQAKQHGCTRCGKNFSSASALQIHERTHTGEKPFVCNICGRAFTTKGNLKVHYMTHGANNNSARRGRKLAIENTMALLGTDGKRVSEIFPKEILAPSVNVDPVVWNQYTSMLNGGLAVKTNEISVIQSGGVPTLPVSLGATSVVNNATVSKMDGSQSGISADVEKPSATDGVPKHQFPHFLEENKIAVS
Technique: universal PBM
Molecule type: double-stranded DNA, one strand shown
Sample: in vitro
Tested at: 600 nM
Setting: 8-mer, flanks averaged, mean of replicates
Direction: higher = stronger binding
| Oligonucleotide | E-score |
| --- | --- |
| AGCATCAA | 0.162 |
| ATACTTCA | 0.282 |
| CTATCCTA | -0.0425 |
| TAGAAACA | 0.237 |
| CGTACGGA | -0.0887 |
| ATCCGAGA | 0.0463 |
| TAAATTGA | 0.278 |

Study 3
Target: CCND2, cyclin fold, Cln2 fusion (human)
Technique: yeast growth competition, sequencing
Sample: yeast
Setting: weak parent motif
Baseline: not given
Direction: higher = stronger binding
Parent: PKMYT1 docking peptide (human); SFEPRNLLSLFED; partner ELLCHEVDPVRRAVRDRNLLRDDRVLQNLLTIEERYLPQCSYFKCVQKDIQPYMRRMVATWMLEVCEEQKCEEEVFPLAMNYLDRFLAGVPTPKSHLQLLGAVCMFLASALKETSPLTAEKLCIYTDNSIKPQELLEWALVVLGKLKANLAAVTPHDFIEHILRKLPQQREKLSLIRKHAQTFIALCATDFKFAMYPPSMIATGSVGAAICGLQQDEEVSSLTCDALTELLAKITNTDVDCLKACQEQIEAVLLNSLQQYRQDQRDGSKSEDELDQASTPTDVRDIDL
| Substitution | normalised enrichment score |
| --- | --- |
| SFEWRNLLSLFED [P4W] | 0.305 |
| SFEPRNLLSLFVD [E12V] | 0.408 |
| SFEPRNLLSLGED [F11G] | 0.104 |
| SFEPRNQLSLFED [L7Q] | 0.043 |
| SEEPRNLLSLFED [F2E] | 0.0545 |
| SFEPSNLLSLFED [R5S] | 0.335 |

Single results of other studies
| Substance | target | assay | system | conditions | how to read | quantity | result |
| --- | --- | --- | --- | --- | --- | --- | --- |
| PhoQ, residues 284 288 289 292 302 303 SQSLSM | PhoP, residues 12 14 15 18 19 LHTVM (Escherichia coli, UniProt P23836) | Sort-seq, refers to: YFP reporter | E. coli | PhoQ-PhoP variant library, with: 10 µM Mg2+ | baseline: high Mg2+ state, higher = stronger signaling | fold induction | 11.2 |

A few entries again (study 3):
| Substitution | normalised enrichment score |
| --- | --- |
| SFEPRNLLSLFVD [E12V] | 0.408 |
| SEEPRNLLSLFED [F2E] | 0.0545 |
